Measured values collected from several papers.
Values after ≈ are worked out from the molar mass of the structure shown.
Organism: Escherichia coli

`CC[C@H](C)[C@H](NC(=O)[C@H](CCCNC(=N)N)NC(=O)[C@H](CCCCN)NC(=O)[C@H](CC(C)C)NC(=O)[C@H](CC(C)C)NC(=O)CN)C(=O)N[C@@H](CCCCN)C(=O)N[C@H](C(=O)N[C@@H](CC(C)C)C(=O)N[C@@H](CC(C)C)C(=O)NCCCC[C@H](NC(=O)[C@H](CC(C)C)NC(=O)[C@H](CC(C)C)NC(=O)[C@@H](NC(=O)[C@H](CCCCN)NC(=O)[C@@H](NC(=O)[C@H](CCCNC(=N)N)NC(=O)[C@H](CCCCN)NC(=O)[C@H](CC(C)C)NC(=O)[C@H](CC(C)C)NC(=O)CN)[C@@H](C)CC)[C@@H](C)O)C(=O)NCCCC[C@H](NC(=O)[C@H](CCCCNC(=O)[C@H](CC(C)C)NC(=O)[C@H](CC(C)C)NC(=O)[C@@H](NC(=O)[C@H](CCCCN)NC(=O)[C@@H](NC(=O)[C@H](CCCNC(=N)N)NC(=O)[C@H](CCCCN)NC(=O)[C@H](CC(C)C)NC(=O)[C@H](CC(C)C)NC(=O)CN)[C@@H](C)CC)[C@@H](C)O)NC(=O)[C@H](CC(C)C)NC(=O)[C@H](CC(C)C)NC(=O)[C@@H](NC(=O)[C@H](CCCCN)NC(=O)[C@@H](NC(=O)[C@H](CCCNC(=N)N)NC(=O)[C@H](CCCCN)NC(=O)[C@H](CC(C)C)NC(=O)[C@H](CC(C)C)NC(=O)CN)[C@@H](C)CC)[C@@H](C)O)C(N)=O)[C@@H](C)O` gave an FIC index of 0.25 (checkerboard; ATCC 25922; together with: rifampicin).
For `C[C@@](O)(C(F)F)[C@H](NC(=O)c1ccc(C#CC#CC2CC2)cc1)C(=O)NO`, “MIC after serial passage” read 1 to 2 µg/mL (≈ 2.66 to 5.31 µM) (W3110).
`CC[C@H](C)[C@H](NC(=O)[C@@H]1CCCN1C(=O)[C@H](CCCNC(=N)N)NC(=O)[C@@H]1CCCN1C(=O)[C@@H]1CCCN1C(=O)[C@@H](NC(=O)[C@@H]1CCCN1C(=O)[C@H](CCCNC(=N)N)NC(=O)[C@@H]1CCCN1C(=O)[C@H](CC(C)C)NC(=O)[C@H](Cc1ccc(O)cc1)NC(=O)[C@H](CO)NC(=O)CNC(=O)[C@H](CCCCN)NC(=O)[C@H](CC(=O)O)NC(=O)[C@@H](N)C(C)C)[C@@H](C)O)C(=O)N[C@@H](Cc1ccc(O)cc1)C(=O)N[C@@H](CC(N)=O)C(=O)N[C@@H](CCCNC(=N)N)C(=O)N[C@@H](CC(N)=O)C(N)=O` has an MBC of 8 µg/mL (broth microdilution; D22).
`CCCCCCCCCCCCCCC(=O)N[C@@H](CCCCN)C(=O)N[C@@H](CCCCN)C(=O)N[C@@H](CCCCN)C(=O)N[C@@H](CCCCN)C(=O)N[C@@H](CCCCN)C(N)=O` has an MBC of 128 µg/mL (K12).
`CCCCCC(=O)NCC(=O)N[C@@H](CC(C)C)C(=O)N[C@@H](CC(C)C)C(=O)N[C@@H](CCCCN)C(=O)N[C@@H](CCCNC(=N)N)C(=O)N[C@H](C(=O)N[C@@H](CCCCN)C(=O)N[C@H](C(=O)N[C@@H](CC(C)C)C(=O)N[C@@H](CC(C)C)C(=O)NCCCC[C@H](NC(=O)[C@H](CCCCNC(=O)[C@H](CC(C)C)NC(=O)[C@H](CC(C)C)NC(=O)[C@@H](NC(=O)[C@H](CCCCN)NC(=O)[C@@H](NC(=O)[C@H](CCCNC(=N)N)NC(=O)[C@H](CCCCN)NC(=O)[C@H](CC(C)C)NC(=O)[C@H](CC(C)C)NC(=O)CNC(=O)CCCCC)[C@@H](C)CC)[C@@H](C)O)NC(=O)[C@H](CC(C)C)NC(=O)[C@H](CC(C)C)NC(=O)[C@@H](NC(=O)[C@H](CCCCN)NC(=O)[C@@H](NC(=O)[C@H](CCCNC(=N)N)NC(=O)[C@H](CCCCN)NC(=O)[C@H](CC(C)C)NC(=O)[C@H](CC(C)C)NC(=O)CNC(=O)CCCCC)[C@@H](C)CC)[C@@H](C)O)C(N)=O)[C@@H](C)O)[C@@H](C)CC` has an FIC index of 0.5 (checkerboard; ATCC 25922; together with: gentamicin).
`CC(C)c1ccc2c(c1)CCC1C(C)(CN(CC(O)C[N+](C)(C)C)CC(O)C[N+](C)(C)C)CCCC21C` (stereo not drawn) gave a selectivity index of > 4 (ATCC 25922; relative to: HC50 over MIC).
The lethal concentration of `CC[C@H](C)[C@H](NC(=O)[C@H](CCCCN)NC(=O)[C@H](CCCCN)NC(=O)[C@H](CC(C)C)NC(=O)[C@H](CCCCN)NC(=O)[C@H](CCC(=O)O)NC(=O)[C@H](CCCCN)NC(=O)[C@@H](NC(=O)[C@H](CCCCN)NC(=O)[C@H](CC(N)=O)NC(=O)[C@H](CCCNC(=N)N)NC(=O)[C@H](Cc1ccccc1)NC(=O)[C@H](CCCCN)NC(=O)[C@H](CCCNC(=N)N)NC(=O)[C@H](CC(C)C)NC(=O)[C@H](CCCNC(=N)N)NC(=O)[C@H](CCCCN)NC(=O)[C@H](CCCNC(=N)N)NC(=O)[C@H](CC(C)C)NC(=O)[C@@H](N)CC(C)C)[C@@H](C)CC)C(=O)NCC(=O)N[C@@H](CCC(N)=O)C(=O)N[C@@H](CCCCN)C(=O)N[C@H](C(=O)N[C@@H](CCC(N)=O)C(=O)NCC(=O)N[C@@H](Cc1ccccc1)C(=O)N[C@H](C(=O)N1CCC[C@H]1C(=O)N[C@@H](CCCCN)C(=O)N[C@@H](CC(C)C)C(=O)N[C@H](C(=O)N1CCC[C@H]1C(=O)N[C@@H](CCCNC(=N)N)C(=O)N[C@H](C(=O)N[C@@H](CCC(=O)O)C(=O)N[C@@H](CO)C(=O)O)[C@@H](C)O)C(C)C)C(C)C)[C@@H](C)CC` is reported as 1.84 µM (inhibition zone; Am. J16c).
The MIC50 of `ONCc1cc(C(F)(F)F)cc(C(F)(F)F)c1` is reported as < 60 µg/mL (microbial growth; 8 h).
`CC[C@H](C)[C@H](NC(=O)[C@H](CCCCN)NC(=O)[C@H](CCCCN)NC(=O)[C@H](CC(C)C)NC(=O)[C@H](CCCCN)NC(=O)[C@H](CCC(=O)O)NC(=O)[C@H](CCCCN)NC(=O)[C@@H](NC(=O)[C@H](CCCCN)NC(=O)[C@H](CC(N)=O)NC(=O)[C@H](CCCNC(=N)N)NC(=O)[C@H](Cc1ccccc1)NC(=O)[C@H](CCCCN)NC(=O)[C@H](CCCNC(=N)N)NC(=O)[C@H](CC(C)C)NC(=O)[C@H](CCCNC(=N)N)NC(=O)[C@H](CCCCN)NC(=O)[C@H](CCCNC(=N)N)NC(=O)[C@H](CC(C)C)NC(=O)CN)[C@@H](C)CC)C(=O)NCC(=O)N[C@@H](CCC(N)=O)C(=O)N[C@@H](CCCCN)C(=O)N[C@H](C(=O)N[C@@H](CCC(N)=O)C(=O)NCC(=O)N[C@@H](Cc1ccccc1)C(=O)N[C@H](C(=O)N1CCC[C@H]1C(=O)N[C@@H](CCCCN)C(=O)N[C@@H](CC(C)C)C(=O)N[C@@H](C)C(=O)N1CCC[C@H]1C(=O)N[C@@H](CCCNC(=N)N)C(=O)N[C@H](C(=O)N[C@@H](CC(=O)O)C(=O)N[C@@H](Cc1ccc(O)cc1)C(=O)O)[C@@H](C)O)C(C)C)[C@@H](C)CC` gave a lethal concentration of 1.6 µM (inhibition zone; DH5α).
For `Cc1ccc([C@H]2N[C@H](C(=O)O)Cc3c2[nH]c2ccccc32)c(C)c1`, the growth inhibition was 0% (BL21(DE3); 250 µM, 18 h).
With `CC[C@H](C)[C@H](NC(=O)[C@H](CCCCN)NC(=O)[C@H](CCCCN)NC(=O)[C@H](CC(C)C)NC(=O)[C@H](CCCCN)NC(=O)[C@H](CCC(=O)O)NC(=O)[C@H](CCCCN)NC(=O)[C@@H](NC(=O)[C@H](CCCCN)NC(=O)[C@H](CC(N)=O)NC(=O)[C@H](CCCNC(=N)N)NC(=O)[C@H](Cc1ccccc1)NC(=O)[C@H](CCCCN)NC(=O)[C@H](CCCNC(=N)N)NC(=O)[C@H](CC(C)C)NC(=O)[C@H](CCCNC(=N)N)NC(=O)[C@H](CCCCN)NC(=O)[C@H](CCCNC(=N)N)NC(=O)[C@H](CC(C)C)NC(=O)[C@@H](N)CCCNC(=N)N)[C@@H](C)CC)C(=O)NCC(=O)N[C@@H](CCC(N)=O)C(=O)N[C@@H](CCCCN)C(=O)N[C@H](C(=O)N[C@@H](CCC(N)=O)C(=O)NCC(=O)N[C@@H](Cc1ccccc1)C(=O)N[C@H](C(=O)N1CCC[C@H]1C(=O)N[C@@H](CCCCN)C(=O)N[C@@H](CC(C)C)C(=O)N[C@@H](CCC(N)=O)C(=O)N1CCC[C@H]1C(=O)N[C@@H](CO)C(=O)N[C@@H](CCCCN)C(=O)N[C@@H](CCC(N)=O)C(=O)N[C@@H](CO)C(=O)O)C(C)C)[C@@H](C)CC` the lethal concentration was 2.89 µM (inhibition zone; Am. J23a).
`CC[C@H](C)[C@H](NC(=O)[C@H](CO)NC(=O)[C@H](CO)NC(=O)[C@H](Cc1ccccc1)NC(=O)CN)C(=O)N[C@@H](Cc1ccccc1)C(=O)N[C@@H](CCCNC(=N)N)C(N)=O` gave an MBC of > 128 µM (ATCC 8739; together with: 4 µM FeCl3).

A few entries again:
For `C[C@@](O)(C(F)F)[C@H](NC(=O)c1ccc(C#CC#CC2CC2)cc1)C(=O)NO`, “MIC after serial passage” read 1 to 2 µg/mL (≈ 2.66 to 5.31 µM) (W3110).
